# Measurements from different studies.
# Numbered parts are unrelated; each lists some results of a single study. Substitutions count along the parent as printed.
# Sequence of UniProt Q9ZSY8 (whole entry, looked up): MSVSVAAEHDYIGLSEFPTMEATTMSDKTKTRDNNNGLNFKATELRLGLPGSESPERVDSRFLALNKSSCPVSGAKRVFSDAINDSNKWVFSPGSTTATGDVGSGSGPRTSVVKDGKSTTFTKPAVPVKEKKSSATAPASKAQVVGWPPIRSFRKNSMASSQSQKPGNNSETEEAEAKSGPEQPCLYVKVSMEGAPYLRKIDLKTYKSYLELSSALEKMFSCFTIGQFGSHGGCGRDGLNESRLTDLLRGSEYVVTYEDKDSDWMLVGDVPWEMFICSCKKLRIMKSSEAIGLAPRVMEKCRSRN
# Sequence of UniProt O23661 (whole entry, looked up): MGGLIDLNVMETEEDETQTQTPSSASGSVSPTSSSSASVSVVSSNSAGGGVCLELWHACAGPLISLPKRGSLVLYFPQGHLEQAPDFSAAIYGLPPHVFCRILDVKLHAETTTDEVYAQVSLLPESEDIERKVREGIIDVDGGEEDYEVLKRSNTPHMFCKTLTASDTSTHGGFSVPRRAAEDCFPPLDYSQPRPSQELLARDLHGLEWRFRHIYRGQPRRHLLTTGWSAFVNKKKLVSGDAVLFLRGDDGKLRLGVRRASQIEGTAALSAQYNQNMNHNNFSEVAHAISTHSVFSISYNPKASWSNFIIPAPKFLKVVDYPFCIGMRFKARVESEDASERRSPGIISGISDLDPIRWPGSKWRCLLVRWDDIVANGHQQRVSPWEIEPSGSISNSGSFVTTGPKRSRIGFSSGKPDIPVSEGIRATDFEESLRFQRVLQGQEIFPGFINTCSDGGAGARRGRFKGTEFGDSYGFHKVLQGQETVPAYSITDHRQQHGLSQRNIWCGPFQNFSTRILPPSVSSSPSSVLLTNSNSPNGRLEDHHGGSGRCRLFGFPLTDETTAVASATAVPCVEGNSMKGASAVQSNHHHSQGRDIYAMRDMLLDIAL

# Set 1
# Target: Histone acetyltransferase KAT6A, both winged helices, GST fusion (KAT6A, Homo sapiens, UniProt Q92794, residues 1-181)
# Method: protein binding microarray
# Molecule type: double-stranded DNA, one strand shown
# Matrix: in vitro
# Concentration: not given
# Notes: 8-mer, flanks averaged, mean of 2 arrays, mostly near background
# Relative to: not given
# Direction: higher = stronger binding
# Target sequence (chain): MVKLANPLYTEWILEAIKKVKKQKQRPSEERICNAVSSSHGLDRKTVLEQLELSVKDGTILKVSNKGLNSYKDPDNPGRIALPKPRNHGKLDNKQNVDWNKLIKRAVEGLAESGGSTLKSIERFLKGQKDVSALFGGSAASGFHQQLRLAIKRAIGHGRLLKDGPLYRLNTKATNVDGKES
Sequence,E-score
ATTCAATG,-0.0858
GGAAGTAA,-0.128
CGGTGATA,0.108
AGCCCGCT,0.189
AATGGCTG,-0.165
CACAGCAC,0.0114
ATGACCGA,0.00785
GCCGGACA,0.232

# Set 2
# Target: FOSB, bZIP domain (human)
# Method: DHFR protein complementation
# Matrix: yeast
# Notes: single substitutions, most at no-binding floor
# Relative to: wild-type JUN-FOS pair
# Direction: higher = stronger binding
# Parent: JUN, bZIP domain (human); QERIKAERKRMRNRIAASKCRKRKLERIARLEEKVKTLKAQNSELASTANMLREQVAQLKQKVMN; partner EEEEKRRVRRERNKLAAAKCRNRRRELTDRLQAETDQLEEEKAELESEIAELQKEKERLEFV
Variant,binding fitness [natural log]
S43H,-0.0621
A29C,-0.373
E33F,-0.42
S47H,-0.0541
E33S,-0.212
S47F,-0.0775
E54L,-0.279
I28E,-0.126

# Further values, each from its own experiment
# ARF11: ARF11 500-622 (Arabidopsis thaliana, UniProt Q9ZPY6)
# Sequence of UniProt Q9ZPY6 (whole entry, looked up): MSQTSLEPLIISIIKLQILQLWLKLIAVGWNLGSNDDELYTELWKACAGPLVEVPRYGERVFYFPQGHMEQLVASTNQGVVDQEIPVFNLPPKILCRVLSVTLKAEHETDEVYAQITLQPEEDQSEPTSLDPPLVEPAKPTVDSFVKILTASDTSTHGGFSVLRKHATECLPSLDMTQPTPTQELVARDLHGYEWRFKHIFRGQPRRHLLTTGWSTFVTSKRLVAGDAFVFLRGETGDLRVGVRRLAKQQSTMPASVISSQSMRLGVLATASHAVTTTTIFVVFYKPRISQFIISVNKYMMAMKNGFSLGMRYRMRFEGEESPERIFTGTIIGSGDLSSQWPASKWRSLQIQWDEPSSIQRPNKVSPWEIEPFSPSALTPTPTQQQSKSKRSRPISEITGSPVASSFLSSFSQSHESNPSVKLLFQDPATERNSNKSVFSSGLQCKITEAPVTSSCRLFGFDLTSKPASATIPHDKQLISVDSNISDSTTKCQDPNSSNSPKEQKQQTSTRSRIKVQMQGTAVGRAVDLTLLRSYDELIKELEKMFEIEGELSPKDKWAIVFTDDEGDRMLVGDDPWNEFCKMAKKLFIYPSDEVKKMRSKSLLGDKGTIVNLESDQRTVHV
# P1: viral docking peptide; KGVKRKLFAEDSS; partner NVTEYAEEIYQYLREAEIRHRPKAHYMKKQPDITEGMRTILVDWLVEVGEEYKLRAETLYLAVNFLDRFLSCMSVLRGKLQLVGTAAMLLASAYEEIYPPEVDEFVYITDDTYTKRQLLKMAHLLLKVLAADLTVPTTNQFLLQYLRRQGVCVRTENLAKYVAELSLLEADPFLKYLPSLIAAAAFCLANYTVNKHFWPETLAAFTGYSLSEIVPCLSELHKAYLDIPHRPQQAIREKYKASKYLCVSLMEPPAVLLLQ
Substance,tested on,test,test system,setting,how to read,endpoint,value
"ETT (Arabidopsis thaliana, UniProt O23661)",ARF11,two-hybrid,,,"relative to: out of 4 tests, higher = firmer interaction",positive tests,0
P1 R5N,"CCNA1, cyclin fold, Cln2 fusion (human)","yeast growth competition, sequencing",yeast,weak parent motif,"relative to: not given, higher = stronger binding",normalised enrichment score,0.24
"IAA27 (Arabidopsis thaliana, UniProt Q9ZSY8)",ARF11,two-hybrid,,,"relative to: out of 4 tests, higher = firmer interaction",positive tests,0

# For quick reference, copied from above (set 1):
Sequence,E-score
GCCGGACA,0.232
ATGACCGA,0.00785
AGCCCGCT,0.189
